Published values collected from several papers.
A part holds a random share of what one study measured. Substitutions count along the parent as printed.

Sample 1
Target: ABI1, truncated, D143A, DHFR fusion (Arabidopsis thaliana)
Technique: DHFR PCA, deep sequencing
Sample: yeast
Setting: methotrexate growth selection, single substitutions
Added: (+)-ABA 0 µM
Reference: wild-type fitted maximum
Reading: higher = stronger binding
Starting sequence: PYL1, truncated, DHFR fusion (Arabidopsis thaliana); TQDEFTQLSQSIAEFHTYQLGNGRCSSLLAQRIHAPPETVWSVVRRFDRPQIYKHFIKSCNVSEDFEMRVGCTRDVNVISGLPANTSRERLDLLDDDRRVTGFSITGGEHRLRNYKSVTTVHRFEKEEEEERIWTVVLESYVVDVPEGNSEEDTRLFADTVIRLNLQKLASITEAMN; partner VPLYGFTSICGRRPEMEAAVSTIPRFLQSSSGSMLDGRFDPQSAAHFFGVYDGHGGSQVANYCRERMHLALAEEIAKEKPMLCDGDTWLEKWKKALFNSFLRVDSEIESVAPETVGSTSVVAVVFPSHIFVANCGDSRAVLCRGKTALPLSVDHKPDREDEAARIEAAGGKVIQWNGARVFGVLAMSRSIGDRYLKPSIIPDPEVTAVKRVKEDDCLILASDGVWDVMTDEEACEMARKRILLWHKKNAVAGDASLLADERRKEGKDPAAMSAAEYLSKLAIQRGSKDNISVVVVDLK
`D96F` — result for “relative binding score”: -7.15%.
Under “relative binding score”, `F124G` is recorded as 10.8%.
`I52Q` — result for “relative binding score”: 7.06%.
`Y115E` — result for “relative binding score”: 5.92%.

Sample 2
Target: CCNE2, cyclin fold, Cln2 fusion (human)
Technique: yeast growth competition, sequencing
Sample: yeast
Setting: strong parent motif
Reference: not given
Reading: higher = stronger binding
Starting sequence: BRCA2 docking peptide (human); PSIKRNLLNEFDR
For `PSAKRNLLNEFDR [I3A]`, “normalised enrichment score” read 2.55.
`PSSKRNLLNEFDR [I3S]` — result for “normalised enrichment score”: 0.701.
For `PSIKRNLLQEFDR [N9Q]`, “normalised enrichment score” read 1.52.
`PSIKRNDLNEFDR [L7D]` — result for “normalised enrichment score”: -0.4.
Under “normalised enrichment score”, `PSIKRNLLKEFDR [N9K]` is recorded as 1.91.
`PSIKRNLFNEFDR [L8F]`: “normalised enrichment score” 1.18.
Under “normalised enrichment score”, `PSIKRNLLHEFDR [N9H]` is recorded as 2.34.

Sample 3
Target: RNA binding protein fox-1 homolog 2, RRM domain, GST-SBP tag (RBFOX2, Homo sapiens, UniProt O43251-10, residues 100-194)
Technique: RNA Bind-n-Seq
Form: RNA
Sample: in vitro
Tested at: 365 nM
Setting: natural RNA segment, single round, ends assumed
Reference: no-protein control
Reading: higher = stronger binding
Residues (chain): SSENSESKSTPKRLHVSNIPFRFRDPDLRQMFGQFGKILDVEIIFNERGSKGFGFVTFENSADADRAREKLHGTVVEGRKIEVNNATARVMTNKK
`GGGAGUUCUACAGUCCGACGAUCAACGUGUUGGUGCUAUAAGCUGCUUCAAAUACCAGUUUGUCUGUAGUGUGUACUCACCUAAUCACUUGUUAUCCAGUGCCUGUUCUAGGUUUAUGGACUUAACUAUUUCUUGGAAUUCUCGGGUGCCAA` — result for “RBNS enrichment (R)”: 0.179.
`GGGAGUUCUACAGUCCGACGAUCGGGGCUGCUGUGAGGAAAACCUGCCAUUGUGGCCCUGGAGAGUCACCAGCAGCUCUUGGGAAGGACUUGCUGGGAGGCUGAGAGAGGCUUUGGGCACAGCCUGCUGUCUUUGGAAUUCUCGGGUGCCAA` — result for “RBNS enrichment (R)”: 0.88.
`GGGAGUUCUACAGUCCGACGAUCUGGUCUUCUUGGGCCAAGCAAUUUCUUUAAAGGAAAAGUUAGCAUUAUGUUUGUGGGGUGCCAGGGCCGCCACCACGAGAAACCGUGUGAUUUUUAUUUUAAUAUUAUUUUGGAAUUCUCGGGUGCCAA`: “RBNS enrichment (R)” 1.05.
Under “RBNS enrichment (R)”, `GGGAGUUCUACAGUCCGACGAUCACCCUUUUUAAAUCACAGAAAUAAAGUUUCAGUUGUCUCAAGAGACAUUAAUCAGGAAUACAGAAUGCAGGUCUUCACAUUUACAGGAAGAGCACCUUGUAUAGUAGGUCUGGAAUUCUCGGGUGCCAA` is recorded as 0.442.
`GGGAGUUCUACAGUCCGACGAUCCAGAGGAGUUUGAUAAUGUGCACGAGGGCACACUGCUAGUAAAUAACAUUAAAAUAACUGGAAUGAACUCCUGAUCCCAAAGCCUAUUGUGUUUUCAACACAAGGUAAUAUGGAAUUCUCGGGUGCCAA`: “RBNS enrichment (R)” 2.21.
Under “RBNS enrichment (R)”, `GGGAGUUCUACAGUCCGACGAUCAUUGUUUUCUGUCCAAACUUCUUAUGACUUUAGUUUUUCAUCAGUCAAUAAAAUUAAUUUACUCUUCAAGAAUCUGUGUGAUCUUCACUGUCUCCUGAGCAAUGUGGCACUGGAAUUCUCGGGUGCCAA` is recorded as 0.565.
For `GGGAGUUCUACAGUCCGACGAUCCAUAUCACACAUAUCUACACUAUUAUCUGAUAACACACUGGUAGUUUUUAAGACUAAGGCAGUUUAUAGAAUGAAGUAUAUCAAUAUUCUUUUGGUUUCCCAAAGCAAUAUGGAAUUCUCGGGUGCCAA`, “RBNS enrichment (R)” read 0.522.
For `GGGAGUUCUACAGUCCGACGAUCCUCCAGACCUGGUUGAGGGAGUAUAGAUUGGGUCUAGCUUGCUUCAGUGUACAGAAACCUCCUCUGUCGUGGCUAGCAUUGAAGCUGGGGUGGAGAACCCGAGGUUAGUUUGGAAUUCUCGGGUGCCAA`, “RBNS enrichment (R)” read 1.16.

Other studies, line by line
`PhoQ, residues 284 288 289 292 302 303 SSTLLI` gave a fold induction of 10.8 (PhoP, residues 12 14 15 18 19 SMASL (Escherichia coli, UniProt P23836); Sort-seq, refers to: YFP reporter; E. coli; PhoQ-PhoP variant library, added: 10 µM Mg2+; reference: high Mg2+ state, higher = stronger signaling).

Some of these lines once more (sample 2):
Under “normalised enrichment score”, `PSIKRNLLHEFDR [N9H]` is recorded as 2.34.
`PSSKRNLLNEFDR [I3S]` — result for “normalised enrichment score”: 0.701.
For `PSAKRNLLNEFDR [I3A]`, “normalised enrichment score” read 2.55.
